Published values collected from several papers.
Protocols differ between the studies behind these lines. pIC50, pKd: −log10 of the molar value.
PLK1: Serine/threonine-protein kinase PLK1 (PLK1, Homo sapiens, UniProt P53350)
Sequence of UniProt P53350 (whole entry, looked up): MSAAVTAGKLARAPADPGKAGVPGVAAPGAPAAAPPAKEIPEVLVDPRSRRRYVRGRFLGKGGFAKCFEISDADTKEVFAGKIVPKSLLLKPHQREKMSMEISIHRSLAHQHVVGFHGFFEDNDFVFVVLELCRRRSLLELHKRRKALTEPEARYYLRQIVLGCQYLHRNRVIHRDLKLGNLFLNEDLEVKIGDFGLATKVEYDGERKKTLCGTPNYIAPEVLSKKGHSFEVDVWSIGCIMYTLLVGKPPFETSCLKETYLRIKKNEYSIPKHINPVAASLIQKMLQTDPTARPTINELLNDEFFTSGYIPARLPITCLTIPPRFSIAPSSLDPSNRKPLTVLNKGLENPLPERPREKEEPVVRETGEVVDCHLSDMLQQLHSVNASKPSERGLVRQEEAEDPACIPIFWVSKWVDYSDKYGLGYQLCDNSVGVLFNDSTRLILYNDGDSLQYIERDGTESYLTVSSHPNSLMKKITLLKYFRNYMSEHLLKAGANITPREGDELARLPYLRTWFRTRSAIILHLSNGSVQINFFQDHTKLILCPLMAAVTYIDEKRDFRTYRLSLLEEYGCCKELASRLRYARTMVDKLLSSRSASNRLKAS
PLK1 polo-box: Serine/threonine-protein kinase PLK1, polo-box (PLK1, Homo sapiens, UniProt P53350)

COc1cc(C(=O)NC2CCC(N3CCN(C[C@H]4CC4(F)F)CC3)CC2)c(F)cc1Nc1ncc2c(n1)N([C@H]1CCCC1(F)F)CC(F)(F)C(=O)N2C (some centres unmarked)
pIC50 (PLK1; enzyme activity, inhibitor, ADP detection): 10.25

C=CC(=O)N1CCc2ccc(-n3c(=O)ccc4cnc5ccc(-c6cnn(C)c6)cc5c43)cc21
pIC50 (PLK1; enzyme activity, inhibitor): < 5.00

CC[C@@H]1C(=O)N(C)c2cnc(Oc3ccc(C(=O)NCCCC[C@H](NC(C)=O)C(N)=O)cc3OC)nc2N1C1CCCC1
pIC50 (PLK1; enzyme activity, inhibitor, FRET): 6.02

CC(C)C[C@H](NC(=O)[C@@H]1CCCN1C(=O)[C@@H]1CCCN1C(=O)[C@H](CC(N)=O)NC(=O)[C@@H](N)Cc1ccc(Cl)c(Cl)c1)C(=O)N[C@@H](Cc1c[nH]cn1)C(=O)N[C@@H](CO)C(=O)N[C@H](C(=O)N[C@@H](C)C(=O)O)[C@@H](C)OP(=O)(O)O
pKd (PLK1 polo-box; binding, MST): 7.17

COc1cc(C(=O)NC2CCC(N3CCN(CC4CCC5(CCCC5)C4)CC3)CC2)c(F)cc1Nc1ncc2c(n1)N(C1CCCC1(F)F)CC(F)(F)C(=O)N2C (centres unmarked)
pIC50 (PLK1; enzyme activity, inhibitor, ADP detection): 10.65

N#Cc1cccc(CN2C[C@@H]3C[C@H](C2)c2c(-c4ccc5ccccc5c4)ccc(=O)n2C3)c1
pKd (PLK1; binding): 6.55

CSCC[C@H](NC(=O)[C@@H]1CCCN1C(=O)CN)C(=O)N[C@@H](CCC(N)=O)C(=O)N[C@@H](CO)C(=O)N[C@H](C(=O)N1CCC[C@H]1C(=O)N[C@@H](CC(C)C)C(=O)N[C@@H](CC(N)=O)C(=O)NCC(=O)O)[C@@H](C)OP(=O)(O)O
pIC50 (PLK1 polo-box; ligand displacement, FP): 5.95

CC[C@@H]1C(=O)N(C)c2cnc(Oc3ccc(C(=O)NCCCC[C@H](NC(C)=O)C(N)=O)cc3OC)nc2N1CC(C)C
IC50 (PLK1; enzyme activity, inhibitor): no inhibition

A few entries again:
N#Cc1cccc(CN2C[C@@H]3C[C@H](C2)c2c(-c4ccc5ccccc5c4)ccc(=O)n2C3)c1
pKd (PLK1; binding): 6.55
